Published values gathered from unrelated publications.
Numbered parts are unrelated; each lists some results of a single study. Changes are numbered by the printed parent chain.

Block 1
Target: ABI1, truncated, D143A, DHFR fusion (Arabidopsis thaliana, UniProt P49597)
Technique: DHFR PCA, dose-response
Matrix: yeast
Notes: Hill fit, not affinity, not high confidence
Added: (+)-ABA, dose series
Reading: lower = more sensitive
Starting sequence: PYL1, truncated, DHFR fusion (Arabidopsis thaliana, UniProt Q8VZS8); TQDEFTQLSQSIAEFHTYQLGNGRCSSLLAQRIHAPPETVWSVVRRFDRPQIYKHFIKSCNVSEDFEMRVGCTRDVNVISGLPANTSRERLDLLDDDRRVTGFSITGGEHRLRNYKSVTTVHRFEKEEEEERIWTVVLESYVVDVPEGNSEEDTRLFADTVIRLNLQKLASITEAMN
| Change | ABA EC50 [µM] |
| --- | --- |
| S80F | 115 |
| F47I | 9.19 |
| V40H | 2.52 |
| R45Y | 1510 |
| C60Q | 1980 |
| R99P | 1070 |
| D153W | 1190 |
| S27L | 384 |
| T119E | 775 |
| Y141I | 6.65 |
| P146Y | 1060 |
| L169H | 8.2 |
| L112W | 0.449 |
| R88P | 1160 |
| T119P | 291 |
| R74T | 38.9 |
| L91D | 2.3 |
| S87V | 10.1 |
| V161M | 208 |

Block 2
Target: CCND2, cyclin fold, Cln2 fusion (human)
Technique: yeast growth competition, sequencing
Matrix: yeast
Notes: weak parent motif
Baseline: not given
Reading: higher = stronger binding
Starting sequence: CDKN1C docking peptide (human); TSACRSLFGPVDH; partner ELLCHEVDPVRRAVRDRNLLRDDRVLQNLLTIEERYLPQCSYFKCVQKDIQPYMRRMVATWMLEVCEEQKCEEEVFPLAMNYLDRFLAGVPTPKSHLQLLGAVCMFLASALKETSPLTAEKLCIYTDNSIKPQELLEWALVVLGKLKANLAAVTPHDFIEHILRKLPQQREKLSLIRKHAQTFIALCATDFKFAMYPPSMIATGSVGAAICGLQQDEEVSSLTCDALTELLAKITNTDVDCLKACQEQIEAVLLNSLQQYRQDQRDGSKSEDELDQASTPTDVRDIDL
| Change | normalised enrichment score |
| --- | --- |
| TSACRALFGPVDH [S6A] | 0.343 |
| TSACRSLFGPADH [V11A] | 0.265 |
| ASACRSLFGPVDH [T1A] | 0.273 |
| TSACRSAFGPVDH [L7A] | -0.0677 |
| TSACRSLLGPVDH [F8L] | -0.0494 |
| TSAARSLFGPVDH [C4A] | 0.122 |
| TSACRSLFGPVDA [H13A] | 0.25 |

Block 3
Target: Centromere-binding protein 1, full length, N-terminal tag (CBF1, Saccharomyces cerevisiae, UniProt P17106, residues 1-351)
Chain of UniProt P17106 (whole entry, looked up): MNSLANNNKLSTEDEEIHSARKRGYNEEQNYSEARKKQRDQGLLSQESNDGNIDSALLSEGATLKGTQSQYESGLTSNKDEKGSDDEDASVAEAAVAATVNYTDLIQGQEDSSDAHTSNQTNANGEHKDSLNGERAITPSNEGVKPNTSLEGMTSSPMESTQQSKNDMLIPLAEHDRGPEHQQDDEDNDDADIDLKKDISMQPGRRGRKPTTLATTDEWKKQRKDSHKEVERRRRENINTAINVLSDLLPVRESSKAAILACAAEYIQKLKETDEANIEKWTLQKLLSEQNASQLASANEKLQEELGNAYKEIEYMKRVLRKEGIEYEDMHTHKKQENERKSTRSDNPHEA
Technique: protein-binding microarray
Form: double-stranded DNA, one strand shown
Matrix: in vitro
Tested at: 0.8 µM
Notes: whole 60-bp probe, no competitor
Reading: higher = stronger binding
| Oligonucleotide | fluorescence intensity [a.u.] |
| --- | --- |
| CTATTCGTTATTTATGGCATCACGATTATTCTCTTCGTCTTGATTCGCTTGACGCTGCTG | 653 |
| CCTAACTACTATAATCACGACATATAGCTTCGTACAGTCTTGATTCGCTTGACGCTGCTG | 749 |
| GAATATGGCGAATTTTACGTCACCGCCTCATGATAGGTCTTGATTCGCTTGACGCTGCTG | 527 |
| CCTAACTACTATAGTCATGCGTAATAGCTTCGTACAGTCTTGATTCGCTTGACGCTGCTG | 604 |
| CTAAAAGCTGCCAACGTGACCTTACGTTCTGATTTCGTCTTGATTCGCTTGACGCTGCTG | 2920 |
| CTAGTTGTAACAGGACAGCTGACAATTGCTAAGTTCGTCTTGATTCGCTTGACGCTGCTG | 702 |
| TGTACGAAGCTATCAAGCGTGCTTATAGTAGTTAGGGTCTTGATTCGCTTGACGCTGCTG | 512 |
| GAAAGCGGCGTTTTGTTCGTGGGACTCACACTTTAGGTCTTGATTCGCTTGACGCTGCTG | 503 |
| GAAAAACGTAGAAACGACATCAGTCGCTTTCGCTAGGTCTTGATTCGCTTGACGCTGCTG | 478 |
| GAAGATCGTGACACTGCTGATGGTTTTGTCATTTAGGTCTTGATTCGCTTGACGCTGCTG | 620 |
| GAATGTAGATCACAATTGGTCACAAAGAACAATTAGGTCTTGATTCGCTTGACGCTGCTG | 547 |
| GAAAATTGGTGGTGGACCGTGACCGACACGCAATAGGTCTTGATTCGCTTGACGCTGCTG | 812 |
| CTACTTTCCGATTATCACACTTTAGGAGCCGTGTTCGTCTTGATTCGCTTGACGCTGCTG | 562 |
| CTAAGCCTCCATCATTACGTCACAAGTGTTATCTTCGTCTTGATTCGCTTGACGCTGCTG | 583 |
| TGTACGAAGCTATTTAATGATCATATAGTAGTTAGGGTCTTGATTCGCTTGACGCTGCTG | 579 |
| CTAGGCAAAATGTGGAGCACGAAAAAATATAAATTCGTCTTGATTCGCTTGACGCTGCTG | 563 |
| GAAAGGCTAGTCTTTCACATGTAAGTCCGTGAATAGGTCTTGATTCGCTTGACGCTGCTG | 618 |

Block 4
Target: Interferon regulatory factor 3, full length, phosphomimetic (IRF3, Homo sapiens, UniProt Q14653, residues 1-427, S386D/S396D/S398D/S402D/T404D/S405D)
Technique: protein-binding microarray
Form: double-stranded DNA, one strand shown
Matrix: in vitro
Tested at: 2540 nM top
Notes: 60-bp whole probe
Added: salmon DNA 0.4 mg/ml
Baseline: random background probes
Reading: higher = stronger binding
Shared flanks, not repeated: GCCTAGCAC … GTCTTGATTCGCTTGACGCTGCTG
Construct (chain): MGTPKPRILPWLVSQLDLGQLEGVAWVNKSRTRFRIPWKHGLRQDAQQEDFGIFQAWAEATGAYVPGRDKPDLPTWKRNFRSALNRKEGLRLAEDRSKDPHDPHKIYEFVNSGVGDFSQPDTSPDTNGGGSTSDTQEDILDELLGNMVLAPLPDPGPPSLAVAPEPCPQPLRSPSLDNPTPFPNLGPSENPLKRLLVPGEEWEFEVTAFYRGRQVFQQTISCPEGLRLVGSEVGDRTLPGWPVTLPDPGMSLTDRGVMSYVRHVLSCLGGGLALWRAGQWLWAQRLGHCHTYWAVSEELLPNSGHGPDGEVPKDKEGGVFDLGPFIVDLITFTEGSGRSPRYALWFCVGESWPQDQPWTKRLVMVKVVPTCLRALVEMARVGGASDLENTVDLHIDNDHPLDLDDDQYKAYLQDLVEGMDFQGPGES
| Oligonucleotide | fitted relative affinity [z-score] |
| --- | --- |
| TTTCCTTTATGTACTCTCTACGTGCTA | 8.68 |
| TCACTTTCCACTTTCTTACTGTGCTAG | 5.22 |
| TTAGGTTCCCTATTCCTTTAGTGCTAG | 4.21 |
| TTAGATCTCAGACTGTATTAGTGCTAG | -0.0728 |
| GACGGTTTCGGGTTACGGGACGTGCTA | 5.35 |
| TTATATTTTAATCACATATAGTGCTAG | 0.908 |
| TAGGTTTCACTTTCCAAAACGTGCTAG | 8.88 |
| TCAACTTTCCAAAGCGTACTGTGCTAG | 2.82 |
| AGAGCTTGTAGCCATCTTTGGTGCTAG | 0.435 |
| CCAGTGCTTGCTCCCCTGCAGTGCTAG | -0.536 |
| GACTATTTCGGGACTGGAGACGTGCTA | 1.14 |
| TTAGATTCCAGTTTCAATTAGTGCTAG | 3.8 |
| TCAATTTTCGGGTAGATGACTGTGCTA | 0.983 |
| TTAGGTTTCGGGTAACGGTTAGTGCTA | 3.42 |
| CAGGAATTGAAAATTAGTGTTGTGCTA | -0.41 |
| TTAGAAGTGAGACTGGATTAGTGCTAG | -0.476 |
| TCATTTATGTACTCTCTCACTGTGCTA | 0.96 |
| TCATGACTCTTTCTGTCACTGTGCTAG | 0.528 |
| GACGAAGTGGGGACTGGAGACGTGCTA | -0.899 |
| TGAGAACTGGGGACTGGATTAGTGCTA | -1.08 |
| CAAGTGGAGCCCAGGCCAGAGTGCTAG | -0.71 |
| TTAGATATCAGACTGTATTAGTGCTAG | 0.346 |

Block 5
Target: Histone acetyltransferase KAT6A, both winged helices, GST fusion (KAT6A, Homo sapiens, UniProt Q92794, residues 1-181)
Technique: protein binding microarray
Form: double-stranded DNA, one strand shown
Matrix: in vitro
Tested at: not given
Notes: 8-mer, flanks averaged, mean of 2 arrays, mostly near background
Baseline: not given
Reading: higher = stronger binding
Construct (chain): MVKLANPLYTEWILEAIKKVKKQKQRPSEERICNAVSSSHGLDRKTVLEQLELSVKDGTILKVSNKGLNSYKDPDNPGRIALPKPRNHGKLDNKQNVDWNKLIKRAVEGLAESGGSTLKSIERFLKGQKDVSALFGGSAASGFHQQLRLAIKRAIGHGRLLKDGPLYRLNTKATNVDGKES
| Oligonucleotide | E-score |
| --- | --- |
| CGGACCCA | 0.115 |
| TACCTCGA | -0.174 |
| CGAGAAGC | 0.129 |
| CTTGCGAC | 0.018 |
| AGAAAGAC | -0.105 |
| ATTGGTGC | -0.0168 |
| CATTGAAA | 0.0481 |
| AACAAAGA | -0.159 |
| CCTGTGCA | -0.0131 |
| AAACGCCG | 0.285 |
| CGAACAAG | 0.0985 |
| CTCAAAAC | -0.203 |
| ACATGACG | 0.168 |
| AGGCCACA | -0.115 |
| GCTGGGAA | -0.0485 |
| TTCCACAA | -0.19 |
| TAGCATAA | -0.0892 |

Block 6
Target: Sal-like protein 4, full length isoform A (SALL4, Homo sapiens, UniProt Q9UJQ4, residues 1-1053)
Chain of UniProt Q9UJQ4 (whole entry, looked up): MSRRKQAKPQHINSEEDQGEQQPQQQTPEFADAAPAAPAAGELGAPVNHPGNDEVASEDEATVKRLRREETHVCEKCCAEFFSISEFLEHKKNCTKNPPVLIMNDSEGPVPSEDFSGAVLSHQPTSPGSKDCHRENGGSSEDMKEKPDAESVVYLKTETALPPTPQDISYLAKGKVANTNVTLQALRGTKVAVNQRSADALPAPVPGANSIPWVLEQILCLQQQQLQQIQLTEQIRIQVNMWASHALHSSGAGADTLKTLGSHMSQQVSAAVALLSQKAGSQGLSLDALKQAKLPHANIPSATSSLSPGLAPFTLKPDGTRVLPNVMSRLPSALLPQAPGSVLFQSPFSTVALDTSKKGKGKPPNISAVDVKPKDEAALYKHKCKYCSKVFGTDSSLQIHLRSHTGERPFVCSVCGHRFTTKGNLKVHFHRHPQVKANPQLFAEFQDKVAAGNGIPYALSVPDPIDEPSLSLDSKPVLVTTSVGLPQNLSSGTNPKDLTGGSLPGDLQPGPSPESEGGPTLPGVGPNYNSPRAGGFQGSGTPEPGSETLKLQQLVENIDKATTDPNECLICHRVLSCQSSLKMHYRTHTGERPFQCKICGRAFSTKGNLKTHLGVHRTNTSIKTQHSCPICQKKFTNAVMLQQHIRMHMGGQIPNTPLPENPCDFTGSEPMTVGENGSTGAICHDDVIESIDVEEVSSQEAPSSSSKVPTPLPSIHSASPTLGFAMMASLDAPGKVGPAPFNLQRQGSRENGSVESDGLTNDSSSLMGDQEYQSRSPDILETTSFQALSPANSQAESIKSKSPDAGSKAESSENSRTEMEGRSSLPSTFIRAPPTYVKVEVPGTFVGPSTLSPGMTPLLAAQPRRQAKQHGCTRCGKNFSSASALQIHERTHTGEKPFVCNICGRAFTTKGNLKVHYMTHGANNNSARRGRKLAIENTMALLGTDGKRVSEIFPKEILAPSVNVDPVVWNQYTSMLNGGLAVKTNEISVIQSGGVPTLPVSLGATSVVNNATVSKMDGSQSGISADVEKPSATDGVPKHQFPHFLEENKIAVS
Technique: universal PBM
Form: double-stranded DNA, one strand shown
Matrix: in vitro
Tested at: 600 nM
Notes: 8-mer, flanks averaged, mean of replicates
Reading: higher = stronger binding
| Oligonucleotide | E-score |
| --- | --- |
| ACGGTCTA | -0.038 |
| CACGGTCG | -0.343 |
| CTCGTTCA | 0.0699 |
| CCGACAGA | -0.158 |
| TCAAAAGA | 0.0859 |
| CGTGCCTC | -0.22 |
| ATTTCGGA | 0.24 |
| CGGCAAGA | -0.113 |
| CTGCCTGA | 0.0387 |
| ACGCTGAT | 0.0768 |
| GGAAAACA | 0.146 |
| GCTATGCA | -0.0248 |
| ACGTACCC | -0.166 |
| AGCATGGG | -0.113 |
| CAGTCCCG | -0.295 |
| CAATTCAG | 0.0047 |
| AGTCCCCA | -0.243 |
| CGCTAACC | -0.246 |
| CGGTAGGA | -0.184 |
| AGGTATTA | 0.307 |
| ACTCCACT | -0.0115 |
| AAACTGAC | -0.0983 |
| AGTCCGTG | -0.273 |
| ATGGTGAG | -0.0307 |
| CCGTCATC | -0.171 |

Other studies, line by line
| Substance | target | assay | system | setting | how to read | measurement | value |
| --- | --- | --- | --- | --- | --- | --- | --- |
| PhoQ, residues 284 288 289 292 302 303 SLKLQV | PhoP, residues 12 14 15 18 19 TQAIL (Escherichia coli, UniProt P23836) | Sort-seq, refers to: YFP reporter | E. coli | PhoQ-PhoP variant library, added: 10 µM Mg2+ | baseline: high Mg2+ state, higher = stronger signaling | fold induction | 8.26 |

Repeated from above (block 4):
| Oligonucleotide | fitted relative affinity [z-score] |
| --- | --- |
| TTAGATCTCAGACTGTATTAGTGCTAG | -0.0728 |
| TCAACTTTCCAAAGCGTACTGTGCTAG | 2.82 |
| TTAGGTTTCGGGTAACGGTTAGTGCTA | 3.42 |
| TTTCCTTTATGTACTCTCTACGTGCTA | 8.68 |
| TTAGATATCAGACTGTATTAGTGCTAG | 0.346 |
| TCAATTTTCGGGTAGATGACTGTGCTA | 0.983 |
| TTAGATTCCAGTTTCAATTAGTGCTAG | 3.8 |
| TCATGACTCTTTCTGTCACTGTGCTAG | 0.528 |
| TCACTTTCCACTTTCTTACTGTGCTAG | 5.22 |
| TTATATTTTAATCACATATAGTGCTAG | 0.908 |
